# Published values from different studies.
# Each numbered part is a random draw from the data of one study; scales do not carry over between parts.

# Sample 1
# Target: Interferon regulatory factor 5, full length, phosphomimetic (IRF5, Homo sapiens, UniProt Q13568-2, residues 1-514, K96S/S451D/S453D/S456D/S462D)
# Technique: protein-binding microarray
# Form: double-stranded DNA, one strand shown
# Medium: in vitro
# Tested at: 250 nM
# Setting: 60-bp whole probe
# Together with: salmon DNA 0.4 mg/ml
# Baseline: random background probes
# Reading: higher = stronger binding
# Constant ends, left off below: GCCTAGCAC … GTCTTGATTCGCTTGACGCTGCTG
Oligonucleotide,log fluorescence [z-score]
TTAGAACTGGACACTGGGTTAGTGCTA,-0.488
GACGGTTTCGGTCTCGAGACGTGCTAG,9.14
TTAGGTATCGACAATCGGTTAGTGCTA,3.46
GACGATTTCAATTTCGAGACGTGCTAG,3.19
GACGGACTCGGTATCGGGACGTGCTAG,0.559
TTAGGTTTCCTATTCCTTTAGTGCTAG,1.02

# Sample 2
# Target: Prothrombin, mature alpha-thrombin (F2, Homo sapiens, UniProt P00734)
# Technique: aptamer microarray, sandwich
# Form: DNA with 2'F-ANA
# Medium: in vitro
# Tested at: 200 nM
# Setting: whole 15-mer aptamer, many near background
# Together with: Cy3 exosite-II aptamer, 400 nM
# Reading: higher = stronger binding
# Oligonucleotide: GGTTGGTGTGGTTGG
Modification,mean fluorescence intensity [a.u.]
2'F-ANA at 1 3 4 5 7 10 12 13,48.7
2'F-ANA at 2 4 6 7 9 12 15,409
2'F-ANA at 1 3 4 7 8 9 10 11 14 15,52.8
2'F-ANA at 1 2 3 5 7 9 12 15,119
2'F-ANA at 1 2 3 4 5 7 8 10 11 12 13 14,49.7
2'F-ANA at 2 3 7 9 10 11 13,363
2'F-ANA at 2 3 5 7 9 10 12 13 15,57
2'F-ANA at 1 5 6 7 11 14 15,48.7
2'F-ANA at 2 7 9 10 15,161

# Sample 3
# Target: RING finger protein unkempt homolog, zinc fingers 1-6, GST-SBP tag (UNK, Homo sapiens, UniProt Q9C0B0, residues 30-357)
# Technique: RNA Bind-n-Seq
# Form: RNA
# Medium: in vitro
# Tested at: not given
# Setting: RNA with constant flanks, human-mouse chimeric sites, ends assumed
# Baseline: input RNA pool
# Reading: higher = stronger binding
# Constant ends, left off below: GGGAGUUCUACAGUCCGACGAUC … CAACAGAGGAUUGAGCAUCA
# Target sequence (chain): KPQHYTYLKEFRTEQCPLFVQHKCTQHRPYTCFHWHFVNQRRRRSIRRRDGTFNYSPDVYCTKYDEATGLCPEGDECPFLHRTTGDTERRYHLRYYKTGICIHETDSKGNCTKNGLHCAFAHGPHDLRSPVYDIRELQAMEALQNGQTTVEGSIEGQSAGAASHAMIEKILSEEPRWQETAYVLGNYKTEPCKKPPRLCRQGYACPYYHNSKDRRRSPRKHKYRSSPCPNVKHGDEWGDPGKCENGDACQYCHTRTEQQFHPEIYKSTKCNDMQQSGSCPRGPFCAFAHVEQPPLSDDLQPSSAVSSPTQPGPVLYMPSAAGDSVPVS
Oligonucleotide,bound/input enrichment
UUUCUACUGCAGCAAACCAUGCUACGAAUUAAGGAUCCUAAGAAGUCCCUGGAUUUUUAUACGAGGGUUCUUGGACUGACGCUAAUCCAGAAGCUUGACUUCCCUGCUAUGAAGUUCUCG,0.0631 ratio
AGAGAUAAGACAUCCAGGAACAUGCGAGGCUCCCGGAUGAAUGGGUUGCCUAGCCCCACUCAUAGUGCCCACUGUAGCUUCUACCGAACCAGAACCUUGCAGGCACUAAGUAAUGAGAAG,0.157 ratio
AUGGAACAUUUCGAUGCGUCACUCAGUACCUAUUUCAAGGCCUUCCUGGGCCCCCGAGAUACAAGAGUCAAAGGAUGGUUCCUCCUGGACAAUUAUAUCCCUACGUUUAUCUGCUCUGUU,0.0627 ratio
UCAGGAACUCAGACAAACAUGAAUGUAAAUGAAGUCAUUAGCAAUAGAGCAAUUGAAAUGUUAGGAGGUGAACUUGGCAGCAAGAAGCCUGUGCACCCCAAUGAUCAUGUUAACAAAAGC,0.662 ratio
UUUCUACUGCAGCAAACGAUGCUAAGAAUUAAGGAUCCUAAGAAGUCCCUGGAUUUUUAUACGAGGGUUCUUGGACUGACCCUCCUGCAAAAAUGUGACUUCCCUGCUAUGAAGUUCUCG,0.328 ratio
UUGCUACUGACUCCCUGGGUUAAAUUCCUGUGGGAGUCAUACAGGCAGUGUUUGGACCUUCUUCGAAACAAUUCUAGAGUAGAGCGCCUUUACCAUGAUAUCGCCCAACAAGCUUUCAAA,0.137 ratio
CUGUGUGUGCUGAAUAAUGAUUUGUGAAAGAAGUUUUUCCAAGCUGUAACCCAUGCUGUUAUUAUAGUUGCUGCAAAAUGUUCUUCCUGAUAUUGAUUUUAUUUGUUCUGACUCUCCCUC,0.516 ratio
ACCUCCCCCUCCCGCCUCACCCCACCCCCGCUUUUUGGAAAGUUUUUGGCUUUUUUUUUCCUUCCCCAUACAAAGUGAUUACAGUUUCCCCCGCAAGUGGGGCUUGAAGGGCUUGACGGA,0.44 ratio
UAAAUUAGGGCUGCCGUUUUCUGUUUCUCCCUGGGCUGCAGACAGCUAGGCGGUUUUAUCUAGCUUAUACAAGGCUGCUGGUGUUCCCUCUUUUUUUCCACGAGGGUGUUUUUGGCUGCA,1.12 ratio

# Further values, each from its own experiment
Molecule,target,test,system,setting,scale,quantity,result
"PhoQ, residues 284 288 289 292 302 303 NLALSC","PhoP, residues 12 14 15 18 19 LYHSL (Escherichia coli, UniProt P23836)","Sort-seq, refers to: YFP reporter",E. coli,"PhoQ-PhoP variant library, together with: 10 µM Mg2+","baseline: high Mg2+ state, higher = stronger signaling",fold induction,1.67
